Experimental data pooled from the literature.
A part holds a random share of what one study measured. Values joined by “and” are separate records of one study, mostly repeats; a detail may differ.
UniProt P10721, sequence (whole entry, unmodified, looked up): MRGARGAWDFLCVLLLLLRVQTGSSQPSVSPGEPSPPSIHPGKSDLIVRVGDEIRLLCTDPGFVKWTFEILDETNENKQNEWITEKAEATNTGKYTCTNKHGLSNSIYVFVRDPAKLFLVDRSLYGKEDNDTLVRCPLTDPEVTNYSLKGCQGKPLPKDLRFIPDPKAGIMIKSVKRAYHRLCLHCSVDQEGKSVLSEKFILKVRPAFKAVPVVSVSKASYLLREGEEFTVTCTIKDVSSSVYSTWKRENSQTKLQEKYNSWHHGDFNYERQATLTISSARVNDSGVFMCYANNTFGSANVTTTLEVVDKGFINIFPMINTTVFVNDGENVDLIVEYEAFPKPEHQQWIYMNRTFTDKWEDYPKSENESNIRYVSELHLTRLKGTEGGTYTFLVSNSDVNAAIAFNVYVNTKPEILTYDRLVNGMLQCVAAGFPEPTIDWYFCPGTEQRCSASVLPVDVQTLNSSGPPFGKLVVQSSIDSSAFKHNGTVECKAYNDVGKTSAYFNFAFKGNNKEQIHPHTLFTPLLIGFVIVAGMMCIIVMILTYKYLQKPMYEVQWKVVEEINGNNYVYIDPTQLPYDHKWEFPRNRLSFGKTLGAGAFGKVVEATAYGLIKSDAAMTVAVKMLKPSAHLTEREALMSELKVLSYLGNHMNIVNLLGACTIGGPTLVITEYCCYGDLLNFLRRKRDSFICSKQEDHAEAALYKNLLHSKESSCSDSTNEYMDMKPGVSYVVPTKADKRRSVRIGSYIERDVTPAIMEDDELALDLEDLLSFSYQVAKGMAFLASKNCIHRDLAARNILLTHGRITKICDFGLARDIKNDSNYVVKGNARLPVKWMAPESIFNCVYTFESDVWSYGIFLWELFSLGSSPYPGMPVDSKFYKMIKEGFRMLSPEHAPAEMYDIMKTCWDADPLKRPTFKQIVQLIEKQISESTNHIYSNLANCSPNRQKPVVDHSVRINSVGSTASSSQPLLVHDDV
UniProt O00750, sequence (whole entry, looked up): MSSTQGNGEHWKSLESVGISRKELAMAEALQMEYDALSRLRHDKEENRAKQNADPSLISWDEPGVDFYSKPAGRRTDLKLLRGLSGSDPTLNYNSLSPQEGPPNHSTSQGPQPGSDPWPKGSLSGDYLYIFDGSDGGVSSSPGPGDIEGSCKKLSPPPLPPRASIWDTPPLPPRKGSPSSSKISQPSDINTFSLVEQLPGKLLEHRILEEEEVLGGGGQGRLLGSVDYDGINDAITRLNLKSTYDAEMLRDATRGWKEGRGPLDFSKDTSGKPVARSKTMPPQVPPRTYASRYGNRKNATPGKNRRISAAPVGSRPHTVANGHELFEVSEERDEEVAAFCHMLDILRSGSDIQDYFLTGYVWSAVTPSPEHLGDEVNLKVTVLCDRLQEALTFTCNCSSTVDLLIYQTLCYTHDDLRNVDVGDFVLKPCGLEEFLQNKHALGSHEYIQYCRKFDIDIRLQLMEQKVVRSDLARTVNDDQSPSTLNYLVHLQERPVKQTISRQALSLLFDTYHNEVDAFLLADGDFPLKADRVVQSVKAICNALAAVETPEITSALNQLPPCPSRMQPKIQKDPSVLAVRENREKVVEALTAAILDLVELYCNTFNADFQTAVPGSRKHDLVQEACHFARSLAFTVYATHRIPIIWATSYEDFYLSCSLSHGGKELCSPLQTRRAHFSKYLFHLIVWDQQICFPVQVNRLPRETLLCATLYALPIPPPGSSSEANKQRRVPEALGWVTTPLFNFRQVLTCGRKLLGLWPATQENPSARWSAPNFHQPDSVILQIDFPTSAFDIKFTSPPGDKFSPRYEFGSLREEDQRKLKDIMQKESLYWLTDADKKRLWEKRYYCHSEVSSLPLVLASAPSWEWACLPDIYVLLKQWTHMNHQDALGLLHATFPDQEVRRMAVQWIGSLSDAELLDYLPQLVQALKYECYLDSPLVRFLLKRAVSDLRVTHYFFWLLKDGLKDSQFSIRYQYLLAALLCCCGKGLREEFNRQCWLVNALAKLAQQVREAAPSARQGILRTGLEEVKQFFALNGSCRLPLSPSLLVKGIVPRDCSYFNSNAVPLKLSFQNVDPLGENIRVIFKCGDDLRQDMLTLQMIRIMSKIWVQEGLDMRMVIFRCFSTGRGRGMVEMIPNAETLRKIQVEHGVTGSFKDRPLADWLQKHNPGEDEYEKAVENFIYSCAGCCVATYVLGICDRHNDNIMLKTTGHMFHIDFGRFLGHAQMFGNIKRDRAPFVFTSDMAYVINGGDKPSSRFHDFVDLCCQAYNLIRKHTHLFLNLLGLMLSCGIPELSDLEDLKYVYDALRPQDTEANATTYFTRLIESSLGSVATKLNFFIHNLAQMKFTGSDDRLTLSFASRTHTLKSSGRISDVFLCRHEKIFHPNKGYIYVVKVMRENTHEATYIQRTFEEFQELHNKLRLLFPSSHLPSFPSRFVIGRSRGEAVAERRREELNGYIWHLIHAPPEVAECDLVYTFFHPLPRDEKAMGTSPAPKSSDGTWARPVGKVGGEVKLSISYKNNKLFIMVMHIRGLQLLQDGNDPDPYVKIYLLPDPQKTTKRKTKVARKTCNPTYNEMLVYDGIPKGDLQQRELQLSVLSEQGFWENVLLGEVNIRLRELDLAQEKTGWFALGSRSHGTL
UniProt P49759, sequence (whole entry, looked up): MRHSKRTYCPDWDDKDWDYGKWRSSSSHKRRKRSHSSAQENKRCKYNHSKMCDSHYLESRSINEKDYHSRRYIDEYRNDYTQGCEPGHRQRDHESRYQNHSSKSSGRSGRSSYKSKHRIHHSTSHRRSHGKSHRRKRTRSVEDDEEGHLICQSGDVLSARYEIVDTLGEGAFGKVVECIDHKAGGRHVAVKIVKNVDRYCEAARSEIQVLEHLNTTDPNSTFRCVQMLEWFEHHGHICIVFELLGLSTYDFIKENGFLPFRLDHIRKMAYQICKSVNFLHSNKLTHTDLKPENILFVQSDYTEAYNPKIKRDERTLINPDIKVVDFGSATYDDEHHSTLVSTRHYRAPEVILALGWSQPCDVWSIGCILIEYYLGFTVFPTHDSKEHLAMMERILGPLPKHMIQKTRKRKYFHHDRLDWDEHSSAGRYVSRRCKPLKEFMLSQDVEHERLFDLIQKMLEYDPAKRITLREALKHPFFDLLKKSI

Sample 1 — Compound: C=CCc1ccc(O)c(-c2ccc(O)c(CC=C)c2)c1; observed: chloride current
ANO1 del476-501: Anoctamin-1 (ANO1, Homo sapiens, UniProt Q5XXA6, del476-501)
UniProt Q5XXA6, sequence (whole entry, unmodified, looked up): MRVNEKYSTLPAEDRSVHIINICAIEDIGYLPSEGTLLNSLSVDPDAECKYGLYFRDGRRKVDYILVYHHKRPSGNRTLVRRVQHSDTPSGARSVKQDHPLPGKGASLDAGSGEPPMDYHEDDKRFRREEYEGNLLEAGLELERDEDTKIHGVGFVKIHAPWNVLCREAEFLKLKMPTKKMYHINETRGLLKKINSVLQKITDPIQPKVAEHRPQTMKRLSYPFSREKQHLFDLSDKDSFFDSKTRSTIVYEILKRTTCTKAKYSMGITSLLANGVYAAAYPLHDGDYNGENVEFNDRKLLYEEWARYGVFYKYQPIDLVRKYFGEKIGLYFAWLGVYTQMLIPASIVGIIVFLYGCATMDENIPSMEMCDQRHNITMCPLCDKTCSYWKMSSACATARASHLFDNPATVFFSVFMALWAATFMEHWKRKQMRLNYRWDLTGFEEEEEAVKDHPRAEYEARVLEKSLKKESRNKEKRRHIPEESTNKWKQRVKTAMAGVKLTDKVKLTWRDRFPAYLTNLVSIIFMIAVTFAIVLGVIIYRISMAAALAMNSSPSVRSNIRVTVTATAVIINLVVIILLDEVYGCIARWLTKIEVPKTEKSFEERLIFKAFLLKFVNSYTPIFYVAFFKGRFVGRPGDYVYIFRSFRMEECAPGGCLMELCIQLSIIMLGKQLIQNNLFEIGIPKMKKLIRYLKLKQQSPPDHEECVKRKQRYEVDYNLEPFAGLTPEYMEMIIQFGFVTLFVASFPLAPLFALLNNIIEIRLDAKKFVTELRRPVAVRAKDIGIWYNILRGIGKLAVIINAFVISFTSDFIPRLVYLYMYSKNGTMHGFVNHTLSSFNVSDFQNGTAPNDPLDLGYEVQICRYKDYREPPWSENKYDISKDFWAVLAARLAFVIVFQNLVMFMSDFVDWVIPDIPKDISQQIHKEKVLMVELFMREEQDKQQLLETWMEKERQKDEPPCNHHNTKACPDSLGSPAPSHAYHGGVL
ANO1 del476-501/F628A: Anoctamin-1 (ANO1, Homo sapiens, UniProt Q5XXA6, del476-501/F628A)
| target | mode | technique | tested at | notes | added | normalized current |
| --- | --- | --- | --- | --- | --- | --- |
| ANO1 del476-501 |  | whole-cell voltage clamp | 30 µM | wild type, concentration-response at 60 mV | 4 µM Ca2+ | 0.0368 |
| ANO1 del476-501/F628A | inhibitor | whole-cell voltage clamp | 10 µM | F602A mutant |  | 0.908 |
| ANO1 del476-501 |  | whole-cell voltage clamp | 10 µM | wild type, concentration-response at 20 mV | 4 µM Ca2+ | 0.0505 |
| ANO1 del476-501/F628A |  | whole-cell voltage clamp | 1 µM | I-V at 80 mV | 4 µM Ca2+ | 0.681 |
| ANO1 del476-501/F628A |  | whole-cell voltage clamp | 1 µM | concentration-response at -60 mV | 4 µM Ca2+ | -0.551 |
| Anoctamin-1 (ANO1, Homo sapiens, UniProt Q5XXA6, del476-501/E659A) | inhibitor | inside-out patch clamp | 10 µM | E633A mutant at -80 mV |  | -0.843 |
| TMEM16A (human) K603A/E623A |  | inside-out patch clamp | 10 µM | membrane voltage 100 mV |  | 0.773 |
| ANO1 del476-501/F628A |  | whole-cell voltage clamp | 1 µM | concentration-response at -40 mV | 4 µM Ca2+ | -0.379 |
| ANO1 del476-501/F628A |  | whole-cell voltage clamp | 10 µM | concentration-response at 60 mV | 4 µM Ca2+ | 0.464 |
| ANO1 del476-501 |  | whole-cell voltage clamp | 1 µM | wild type, concentration-response at 60 mV | 4 µM Ca2+ | 0.54 |
| ANO1 del476-501/F628A |  | whole-cell voltage clamp | 100 µM | concentration-response at 40 mV | 4 µM Ca2+ | 0.0632 |
| ANO1 del476-501/F628A |  | whole-cell voltage clamp | 10 µM | I-V at 0 mV | 4 µM Ca2+ | -0.0042 |
| Anoctamin-1 (ANO1, Homo sapiens, UniProt Q5XXA6, del476-501/R429A) | inhibitor | whole-cell voltage clamp | concentration not given | R429A mutant |  | 0.336 and 0.42 and 0.371 and 0.416 and 0.349 and 0.346 and 0.443 |
| ANO1 del476-501 |  | whole-cell voltage clamp | 3 µM | wild type, concentration-response at -80 mV | 4 µM Ca2+ | -0.546 |
| ANO1 del476-501 |  | whole-cell voltage clamp | 3 µM | wild type, concentration-response at 100 mV | 4 µM Ca2+ | 0.744 |
| ANO1 del476-501/F628A |  | whole-cell voltage clamp | 3 µM | concentration-response at -100 mV | 4 µM Ca2+ | -0.767 |
| Anoctamin-1 (ANO1, Homo sapiens, UniProt Q5XXA6) |  | inside-out patch clamp | 10 µM | membrane voltage -40 mV |  | -0.292 |
| TMEM16A (human) K603A/E623A |  | inside-out patch clamp | 10 µM | membrane voltage 80 mV |  | 0.546 |

Sample 2 — SMILES: CCC(=N\O)/C(C)=C/c1ccc(F)cc1; observed: cell-free assay; technique: competition with immobilised ligand; tested at: 1 µM
| target | remaining binding [%] |
| --- | --- |
| MAP3K11 (Homo sapiens, UniProt Q16584) | 88 |
| NEK10 (Homo sapiens, UniProt Q6ZWH5) | 95 |
| CIT (Homo sapiens, UniProt O14578) | 70 |
| MYLK (Homo sapiens, UniProt Q15746) | 100 |
| FGFR4 (Homo sapiens, UniProt P22455) | 96 |
| LATS2 (Homo sapiens, UniProt Q9NRM7) | 100 |
| KIT (Homo sapiens, UniProt P10721, T670I/V559D) | 95 |
| NTRK2 (Homo sapiens, UniProt Q16620) | 66 |
| RIPK1 (Homo sapiens, UniProt Q13546) | 82 |
| RAF1 (Homo sapiens, UniProt P04049) | 91 |
| KIT (Homo sapiens, UniProt P10721, A829P) | 64 |
| Tyrosine-protein kinase ABL1, phosphorylated (ABL1, Homo sapiens, UniProt P00519, Q252H) | 69 |
| ERBB3 (Homo sapiens, UniProt P21860) | 100 |
| PLK2 (Homo sapiens, UniProt Q9NYY3) | 78 |
| PRKCD (Homo sapiens, UniProt Q05655) | 100 |
| DYRK1A (Homo sapiens, UniProt Q13627) | 91 |
| KIT (Homo sapiens, UniProt P10721, L576P) | 100 |
| Ribosomal protein S6 kinase alpha-3, N-terminal kinase domain (RPS6KA3, Homo sapiens, UniProt P51812) | 81 |
| Tyrosine-protein kinase ABL1, non-phosphorylated (ABL1, Homo sapiens, UniProt P00519, H396P) | 100 |
| AAK1 (Homo sapiens, UniProt Q2M2I8) | 89 |
| CLK1 (Homo sapiens, UniProt P49759) | 79 |
| PIK3CD (Homo sapiens, UniProt O00329) | 72 |
| EGFR (Homo sapiens, UniProt P00533, L861Q) | 60 |
| PIK3C2B (Homo sapiens, UniProt O00750) | 92 |
| SBK3 (Homo sapiens, UniProt P0C264) | 100 |

Sample 3 — observed: enzyme activity; tested at: 5 µM
SMILES: O=C(Nc1cnn(-c2csc(C(=O)NC3COC3)c2)c1)Nc1ccccc1Cl
ARAF: Serine/threonine-protein kinase A-Raf (ARAF, Homo sapiens, UniProt P10398)
UniProt P10398, sequence (whole entry, looked up): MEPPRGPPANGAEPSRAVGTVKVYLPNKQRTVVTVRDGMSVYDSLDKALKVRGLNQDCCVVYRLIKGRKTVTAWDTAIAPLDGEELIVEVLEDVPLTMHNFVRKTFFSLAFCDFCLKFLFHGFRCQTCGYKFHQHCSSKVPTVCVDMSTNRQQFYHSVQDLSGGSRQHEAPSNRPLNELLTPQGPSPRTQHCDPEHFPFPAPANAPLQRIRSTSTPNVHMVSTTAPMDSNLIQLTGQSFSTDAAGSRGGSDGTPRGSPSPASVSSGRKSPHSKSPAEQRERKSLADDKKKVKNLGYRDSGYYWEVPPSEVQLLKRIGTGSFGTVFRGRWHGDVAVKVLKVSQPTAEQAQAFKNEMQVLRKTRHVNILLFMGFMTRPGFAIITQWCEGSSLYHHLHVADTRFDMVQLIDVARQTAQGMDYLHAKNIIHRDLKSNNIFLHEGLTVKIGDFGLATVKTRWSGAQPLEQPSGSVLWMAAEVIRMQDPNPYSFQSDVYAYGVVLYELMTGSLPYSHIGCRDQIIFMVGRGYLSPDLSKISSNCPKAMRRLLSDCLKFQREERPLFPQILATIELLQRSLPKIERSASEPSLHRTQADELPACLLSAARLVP
| target | mode | baseline | remaining activity [%] |
| --- | --- | --- | --- |
| Cyclin-dependent kinase 2, with cyclin A1 (CDK2, Homo sapiens, UniProt P24941) |  | untreated control | 101 |
| NIM1K (Homo sapiens, UniProt Q8IY84) |  | untreated control | 101 |
| LIM domain kinase 1 (LIMK1, Homo sapiens, UniProt P53667) |  | untreated control | 96 |
| SBK1 (Homo sapiens, UniProt Q52WX2) |  | untreated control | 98.8 |
| TLK2 (Homo sapiens, UniProt Q86UE8) |  | untreated control | 98.7 |
| TTBK2 (Homo sapiens, UniProt Q6IQ55) |  | untreated control | 106 |
| PRKCE (Homo sapiens, UniProt Q02156) |  | untreated control | 98.3 |
| RIPK3 (Homo sapiens, UniProt Q9Y572) | inhibitor |  | 101 |
| ARAF |  | untreated control | 91.9 |
| ARAF | inhibitor |  | 95.1 |
| MAP2K7 (Homo sapiens, UniProt O14733) | inhibitor |  | 112 |
| TEC (Homo sapiens, UniProt P42680) |  | untreated control | 95 |
| NEK5 (Homo sapiens, UniProt Q6P3R8) | inhibitor |  | 110 |

Sample 4 — observed: enzyme activity; mode: inhibitor; tested at: 0.5 µM; baseline: control
Target: Serine/threonine-protein kinase 26 (STK26, Homo sapiens, UniProt Q9P289)
UniProt Q9P289, sequence (whole entry, looked up): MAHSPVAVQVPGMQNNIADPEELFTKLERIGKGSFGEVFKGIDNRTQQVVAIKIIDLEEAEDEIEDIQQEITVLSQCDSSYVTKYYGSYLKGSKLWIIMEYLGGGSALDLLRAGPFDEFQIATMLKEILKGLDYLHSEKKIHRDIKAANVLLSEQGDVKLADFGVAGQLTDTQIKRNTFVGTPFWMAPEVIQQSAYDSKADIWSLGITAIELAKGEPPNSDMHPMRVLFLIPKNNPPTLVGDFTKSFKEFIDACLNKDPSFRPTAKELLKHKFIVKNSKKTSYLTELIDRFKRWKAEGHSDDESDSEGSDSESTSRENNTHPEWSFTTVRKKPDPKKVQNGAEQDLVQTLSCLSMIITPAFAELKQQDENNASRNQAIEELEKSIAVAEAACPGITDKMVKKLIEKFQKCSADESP
| SMILES | remaining activity [%] |
| --- | --- |
| O=C1Cc2c([nH]c3ccc([N+](=O)[O-])cc23)-c2ccccc2N1 | 78.6 |
| CCCC(=O)Oc1ccc2[nH]c(C(=O)c3cc4ccccc4[nH]3)cc2c1 | 94.8 |
| O=C1NC(=O)C(c2c[nH]c3ccccc23)=C1c1c[nH]c2ccccc12 | 59.2 |
| COc1ccc(S(=O)(=O)N(CCO)c2ccccc2CN(C)CC=Cc2ccc(Cl)cc2)cc1 | 105 |
| O=S(=O)(NCCNC/C=C/c1ccc(Br)cc1)c1cccc2cnccc12 | 94.8 |
| Cc1ccc(NC2=CC(=O)c3sc(C)nc3C2=O)cc1 | 86.6 |
| CC[n+]1c(/C=C/N(C)c2ccccc2)n(-c2ccccc2)c2ccc(-c3nc4ccccc4s3)cc21 | 93.7 |
| Nc1nccc(-c2c(-c3ccc(F)cc3)ncn2C2CCNCC2)n1 | 98.4 |
| CC(C)(C)n1nc(Cc2cccc3ccccc23)c2c(N)ncnc21 | 80.7 |
| Oc1ccc(Nc2nc(-c3ccc(Cl)cc3)cs2)cc1 | 105 |
| Fc1ccc(-c2nc3n(c2-c2ccncc2)CCS3)cc1 | 109 |
| COc1cc(Nc2c(C#N)cnc3cc(OCCCN4CCN(C)CC4)c(OC)cc23)c(Cl)cc1Cl | 5.9 |
| CC(=O)c1ccc(N2CCOCC2)cc1O | 99.5 |
| CC#CC(=O)Nc1cc2c(Nc3ccc(F)c(Cl)c3)ncnc2cn1 | 103 |
| Cc1cc(Nc2nc(-c3ccccc3)nc3ccccc23)n[nH]1 | 91.2 |
| Nc1nc(Nc2ccc(S(N)(=O)=O)cc2)nn1C(=O)c1c(F)cccc1F | 64.2 |
| NC(=O)c1ccc(N(C(N)=O)c2c(F)cccc2F)nc1-c1ccc(F)cc1F | 117 |
| CCc1[nH]c(-c2ccc(OC)cc2)nc1-c1ccncc1 | 106 |
| Nc1ncnc2c1cnn2-c1ccccc1 | 82.2 |
| Cc1cncc2cccc(S(=O)(=O)N3CCCN(C(=O)CN)C[C@@H]3C)c12 | 107 |
| CSc1nc(-c2ccnc(N[C@@H](C)c3ccccc3)c2)c(-c2ccc(F)cc2)[nH]1 (racemic) | 101 |
| N#CC(=C(N)Sc1ccc(N)cc1)c1ccccc1C(F)(F)F | 97.2 |

A few entries again (sample 1):
| target | mode | technique | tested at | notes | added | normalized current |
| --- | --- | --- | --- | --- | --- | --- |
| ANO1 del476-501/F628A |  | whole-cell voltage clamp | 100 µM | concentration-response at 40 mV | 4 µM Ca2+ | 0.0632 |
| ANO1 del476-501/F628A |  | whole-cell voltage clamp | 10 µM | I-V at 0 mV | 4 µM Ca2+ | -0.0042 |
| Anoctamin-1 (ANO1, Homo sapiens, UniProt Q5XXA6, del476-501/R429A) | inhibitor | whole-cell voltage clamp | concentration not given | R429A mutant |  | 0.336 and 0.42 and 0.371 and 0.416 and 0.349 and 0.346 and 0.443 |
| ANO1 del476-501 |  | whole-cell voltage clamp | 3 µM | wild type, concentration-response at -80 mV | 4 µM Ca2+ | -0.546 |
